Assay results of several laboratories.
Every numbered part comes from another study and shows a few of its results, in no order. Substitutions count along the parent as printed.

Sample 1 — method: RNA Bind-n-Seq; form: RNA; medium: in vitro; tested at: not given; baseline: input RNA pool; direction: higher = stronger binding
Target: RING finger protein unkempt homolog, zinc fingers 1-6, GST-SBP tag (UNK, Homo sapiens, UniProt Q9C0B0, residues 30-357)
Sequence of UniProt Q9C0B0 (30-357, looked up): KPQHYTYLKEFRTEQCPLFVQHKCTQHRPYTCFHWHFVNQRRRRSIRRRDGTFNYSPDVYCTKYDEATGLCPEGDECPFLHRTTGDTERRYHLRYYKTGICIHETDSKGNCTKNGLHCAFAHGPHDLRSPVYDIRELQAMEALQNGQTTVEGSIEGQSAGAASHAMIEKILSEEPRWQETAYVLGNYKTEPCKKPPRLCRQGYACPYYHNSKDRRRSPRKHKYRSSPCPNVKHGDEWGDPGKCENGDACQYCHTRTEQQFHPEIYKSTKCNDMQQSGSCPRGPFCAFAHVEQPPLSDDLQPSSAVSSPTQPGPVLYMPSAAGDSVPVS
Setting: RNA with constant flanks, human-mouse chimeric sites, ends assumed
Shared flanks, not repeated: GGGAGUUCUACAGUCCGACGAUC … CAACAGAGGAUUGAGCAUCA
With `UUUCUACUGCAGCAAACGAUGCUAAGAAUUAAGGAUCCUAAGAAGUCACUGGAUUUUUAUACGAGGGUUCUUGGACUGACCCUCCUGCAGAAGCUUGACUUCCCUGCUAUGAAGUUCUCG` the bound/input enrichment was 0.219 ratio.
`CUUUUUAAGAAGAUAUGUGAUGGGAUCUUUUAUACCCCUCAGUACUUAAACCCUUCAGUGAUUAGCCUUUUGAAACAUAUGCUGCAGGUGGAUCCCAUGAAGAGGGCCGCAAUAAAAGAU` gave a bound/input enrichment of 0.559 ratio.
`AUGGAGAAGGAUUCUCUGCCCCGCUUUGUGCGCUCUGAAUUUUAUAAGGAGCUAAUCAAGUAGUCAUCUGGUCAGGCUAUGAAAUCAUGCCCUGUGAUAUUUCCUCCAUCCUUUGUAGCA` has a bound/input enrichment of 0.239 ratio.
`AAUUUCCUGUCAUACUUUUUAGACAUUCACAUCAGACUUACAGAGCACCUGGCCACAUUCUAGUUUUGAAUUAUUUCUCAGCUAUGGAUAUGAUCAAAUGAGAACACUGCUUAACUAAUG` has a bound/input enrichment of 0.435 ratio.
With `AGUGUGCAGGAAUUCAUGACCUUUACAAGUCAACUGAUUGUGGAACGCUCGGGGAAAGGCACUAGAGCUUCUGUCAAAGAACAAGACUAUCUUUGCCAUGUCUACGUCCGGAGCGACAGU` the bound/input enrichment was 0.134 ratio.
For `UGUGCAUAUGAUGCUUGAGAUGGUUUUUGCAAAAGCAGACAUCGCUGCAAGGUAAUCACAAUAGAUACAAGCGGUAUUUUAAACCUUUGAAAUAAAUGGAUGUAACUGUACCUUGGUACA`, the bound/input enrichment was 0.247 ratio.

Sample 2 — method: aptamer microarray, sandwich; form: DNA with 2'F-ANA; medium: in vitro; tested at: 200 nM; together with: Cy3 exosite-II aptamer, 400 nM; direction: higher = stronger binding; oligonucleotide: GGTTGGTGTGGTTGG
Target: Prothrombin, mature alpha-thrombin (F2, Homo sapiens, UniProt P00734)
Setting: whole 15-mer aptamer, many near background
For `2'F-ANA at 1 4 8 9 10 11 12 13 14`, “mean fluorescence intensity” read 57.1 a.u.
`2'F-ANA at 4 6 9 12 13`: “mean fluorescence intensity” 292 a.u.
`2'F-ANA at 5 7 8 9 10 12 13 14`: “mean fluorescence intensity” 53.6 a.u.
`2'F-ANA at 1 3 4 5 6 8 10 12 13 15` — result for “mean fluorescence intensity”: 48.8 a.u.
For `2'F-ANA at 1 2 3 4 7 9 10 12 13 14 15`, “mean fluorescence intensity” read 51.4 a.u.
For `2'F-ANA at 2 4 7 9 13 14 15`, “mean fluorescence intensity” read 84.3 a.u.
`2'F-ANA at 1 2 3 7 9 14 15` — result for “mean fluorescence intensity”: 73 a.u.
`2'F-ANA at 2 3 4 6 7 8 9 12 13`: “mean fluorescence intensity” 554 a.u.
`2'F-ANA at 1 3 4 6 8 10 11 12 13 15` — result for “mean fluorescence intensity”: 63.4 a.u.

Sample 3 — target: CCND3, cyclin fold, Cln2 fusion (human); method: yeast growth competition, sequencing; medium: yeast; setting: weak parent motif; baseline: not given; direction: higher = stronger binding
Starting sequence: MASTL docking peptide (human); PMIAKNLMCELDE
`N6G` — result for “normalised enrichment score”: -0.0309.
For `C9R`, “normalised enrichment score” read 0.0565.
`L11S` — result for “normalised enrichment score”: -0.00898.
`L11P`: “normalised enrichment score” -0.134.
`D12K`: “normalised enrichment score” 0.153.
For `K5G`, “normalised enrichment score” read -0.4.

Other studies, line by line
The fold induction of `PhoQ, residues 284 288 289 292 302 303 SLSLLA` is reported as 5.67 (PhoP, residues 12 14 15 18 19 LHSVW (Escherichia coli, UniProt P23836); Sort-seq, item: YFP reporter; E. coli; PhoQ-PhoP variant library, together with: 10 µM Mg2+; baseline: high Mg2+ state, higher = stronger signaling).

A few entries again (sample 2):
For `2'F-ANA at 1 4 8 9 10 11 12 13 14`, “mean fluorescence intensity” read 57.1 a.u.
`2'F-ANA at 4 6 9 12 13`: “mean fluorescence intensity” 292 a.u.
`2'F-ANA at 5 7 8 9 10 12 13 14`: “mean fluorescence intensity” 53.6 a.u.
